Results from different studies.
Compare with care: the assays were run in different laboratories. Values joined by “and” are separate records of one study, mostly repeats; a detail may differ. Numbers after ± are the reported error.
inhA: Enoyl-[acyl-carrier-protein] reductase [NADH] (inhA, Mycobacterium tuberculosis, UniProt P9WGR1)

By UniProt entry, the sequences of proteins in these tests, tags left out. Residues count along the entry.
UniProt P9WGR1, whole entry: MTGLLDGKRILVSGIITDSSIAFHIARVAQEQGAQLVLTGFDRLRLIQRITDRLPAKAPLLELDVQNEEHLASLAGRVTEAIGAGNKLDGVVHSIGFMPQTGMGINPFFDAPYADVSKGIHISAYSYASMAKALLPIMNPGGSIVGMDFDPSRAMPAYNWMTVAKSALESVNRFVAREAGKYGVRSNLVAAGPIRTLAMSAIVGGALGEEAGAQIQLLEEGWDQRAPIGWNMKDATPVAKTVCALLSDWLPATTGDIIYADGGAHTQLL
UniProt P21728, whole entry: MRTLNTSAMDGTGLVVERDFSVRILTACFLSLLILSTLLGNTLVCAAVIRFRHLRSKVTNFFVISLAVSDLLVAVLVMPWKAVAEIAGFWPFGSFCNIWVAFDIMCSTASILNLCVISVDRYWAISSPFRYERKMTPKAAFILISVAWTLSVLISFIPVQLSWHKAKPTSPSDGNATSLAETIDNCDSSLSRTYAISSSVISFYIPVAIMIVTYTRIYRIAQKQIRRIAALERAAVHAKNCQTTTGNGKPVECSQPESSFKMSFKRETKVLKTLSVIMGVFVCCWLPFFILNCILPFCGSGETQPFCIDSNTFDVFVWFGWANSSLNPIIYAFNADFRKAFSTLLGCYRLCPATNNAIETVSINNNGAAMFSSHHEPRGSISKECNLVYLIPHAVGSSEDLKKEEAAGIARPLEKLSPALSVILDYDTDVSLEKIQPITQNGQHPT
UniProt R4P353, 1-724 S562A limits assumed: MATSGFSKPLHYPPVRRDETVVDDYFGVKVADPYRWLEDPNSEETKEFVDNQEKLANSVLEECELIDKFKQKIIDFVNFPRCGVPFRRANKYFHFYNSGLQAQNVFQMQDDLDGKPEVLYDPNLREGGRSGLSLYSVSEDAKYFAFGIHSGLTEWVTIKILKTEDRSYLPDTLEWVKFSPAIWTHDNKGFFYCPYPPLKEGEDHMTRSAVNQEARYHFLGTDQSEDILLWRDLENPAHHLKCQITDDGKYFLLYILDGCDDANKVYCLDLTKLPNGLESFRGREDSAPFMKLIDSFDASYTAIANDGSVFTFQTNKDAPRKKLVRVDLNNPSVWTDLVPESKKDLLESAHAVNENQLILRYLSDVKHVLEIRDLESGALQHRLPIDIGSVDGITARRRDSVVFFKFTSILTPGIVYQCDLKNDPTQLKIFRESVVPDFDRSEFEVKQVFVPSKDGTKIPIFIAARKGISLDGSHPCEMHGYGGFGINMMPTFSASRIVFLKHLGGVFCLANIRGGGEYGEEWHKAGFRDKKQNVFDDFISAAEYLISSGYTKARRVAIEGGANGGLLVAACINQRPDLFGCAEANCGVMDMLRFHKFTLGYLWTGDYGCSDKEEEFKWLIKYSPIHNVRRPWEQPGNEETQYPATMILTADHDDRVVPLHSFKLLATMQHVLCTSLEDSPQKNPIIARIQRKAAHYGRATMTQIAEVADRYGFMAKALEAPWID
UniProt O15393, whole entry S251D/R252D/Q253D/S254D/R255K, looked up: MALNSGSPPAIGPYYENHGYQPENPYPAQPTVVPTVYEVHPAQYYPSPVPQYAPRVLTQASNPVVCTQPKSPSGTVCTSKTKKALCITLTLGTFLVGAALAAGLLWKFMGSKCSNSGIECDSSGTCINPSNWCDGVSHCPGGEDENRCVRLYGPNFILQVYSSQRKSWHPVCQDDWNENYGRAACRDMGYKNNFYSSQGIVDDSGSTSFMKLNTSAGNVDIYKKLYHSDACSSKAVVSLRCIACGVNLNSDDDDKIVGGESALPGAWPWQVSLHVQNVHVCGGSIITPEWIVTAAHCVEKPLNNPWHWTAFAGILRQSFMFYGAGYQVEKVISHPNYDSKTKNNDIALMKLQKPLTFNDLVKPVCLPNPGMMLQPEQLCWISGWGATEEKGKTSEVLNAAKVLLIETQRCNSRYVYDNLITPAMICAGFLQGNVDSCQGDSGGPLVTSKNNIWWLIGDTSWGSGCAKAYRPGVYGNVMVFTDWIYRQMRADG
UniProt Q9GZZ6, whole entry, looked up: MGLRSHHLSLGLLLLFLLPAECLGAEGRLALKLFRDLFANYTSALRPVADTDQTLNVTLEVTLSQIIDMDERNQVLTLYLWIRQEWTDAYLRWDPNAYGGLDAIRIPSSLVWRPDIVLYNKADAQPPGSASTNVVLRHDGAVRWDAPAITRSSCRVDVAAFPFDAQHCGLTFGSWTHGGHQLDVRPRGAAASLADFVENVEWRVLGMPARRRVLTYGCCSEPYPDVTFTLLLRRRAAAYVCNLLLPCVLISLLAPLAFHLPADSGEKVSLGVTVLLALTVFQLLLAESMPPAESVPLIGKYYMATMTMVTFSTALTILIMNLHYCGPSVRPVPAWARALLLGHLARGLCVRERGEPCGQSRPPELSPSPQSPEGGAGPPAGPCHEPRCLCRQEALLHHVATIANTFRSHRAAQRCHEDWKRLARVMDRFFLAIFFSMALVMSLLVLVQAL
UniProt Q9UGM1, whole entry, looked up: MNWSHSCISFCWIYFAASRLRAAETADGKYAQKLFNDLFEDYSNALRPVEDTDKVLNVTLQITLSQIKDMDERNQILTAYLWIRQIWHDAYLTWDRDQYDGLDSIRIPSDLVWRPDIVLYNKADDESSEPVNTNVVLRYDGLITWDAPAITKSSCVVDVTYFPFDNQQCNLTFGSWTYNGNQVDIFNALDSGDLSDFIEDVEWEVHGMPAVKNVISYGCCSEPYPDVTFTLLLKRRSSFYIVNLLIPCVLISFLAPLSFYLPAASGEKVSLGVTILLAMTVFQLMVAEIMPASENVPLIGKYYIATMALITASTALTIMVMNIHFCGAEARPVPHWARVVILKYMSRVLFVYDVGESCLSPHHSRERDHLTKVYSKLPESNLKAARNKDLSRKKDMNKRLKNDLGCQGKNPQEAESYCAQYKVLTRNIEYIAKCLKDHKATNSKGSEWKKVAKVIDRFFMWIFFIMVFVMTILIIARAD
UniProt P35372, whole entry: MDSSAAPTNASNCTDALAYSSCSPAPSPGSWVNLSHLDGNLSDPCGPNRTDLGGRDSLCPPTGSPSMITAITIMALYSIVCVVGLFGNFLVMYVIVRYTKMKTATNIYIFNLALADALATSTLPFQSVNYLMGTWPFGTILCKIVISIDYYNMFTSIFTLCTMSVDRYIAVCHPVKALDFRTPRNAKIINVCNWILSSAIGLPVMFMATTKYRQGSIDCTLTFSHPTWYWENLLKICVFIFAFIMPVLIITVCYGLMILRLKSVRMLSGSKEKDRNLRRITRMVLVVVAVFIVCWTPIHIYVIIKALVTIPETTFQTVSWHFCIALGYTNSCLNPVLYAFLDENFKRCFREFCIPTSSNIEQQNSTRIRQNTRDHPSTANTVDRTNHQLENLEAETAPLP
UniProt P9WNX1, whole entry: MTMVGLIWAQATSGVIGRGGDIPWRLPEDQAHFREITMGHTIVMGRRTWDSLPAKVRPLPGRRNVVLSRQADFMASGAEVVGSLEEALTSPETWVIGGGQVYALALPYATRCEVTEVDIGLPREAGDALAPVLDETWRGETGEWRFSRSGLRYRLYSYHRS
UniProt P36544, 23-502 limits assumed: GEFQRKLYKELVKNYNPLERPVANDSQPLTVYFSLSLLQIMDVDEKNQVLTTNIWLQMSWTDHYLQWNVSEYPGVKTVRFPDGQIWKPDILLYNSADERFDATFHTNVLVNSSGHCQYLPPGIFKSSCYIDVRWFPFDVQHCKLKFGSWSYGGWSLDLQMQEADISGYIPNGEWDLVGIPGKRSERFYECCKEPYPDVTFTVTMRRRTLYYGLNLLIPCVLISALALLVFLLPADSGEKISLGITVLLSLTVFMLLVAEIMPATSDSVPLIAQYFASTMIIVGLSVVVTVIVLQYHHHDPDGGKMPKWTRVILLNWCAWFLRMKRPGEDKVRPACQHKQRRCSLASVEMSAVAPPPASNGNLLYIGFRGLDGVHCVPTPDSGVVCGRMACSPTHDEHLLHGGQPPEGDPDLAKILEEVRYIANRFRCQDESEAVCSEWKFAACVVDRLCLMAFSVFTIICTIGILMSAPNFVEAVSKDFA
UniProt P42866, whole entry: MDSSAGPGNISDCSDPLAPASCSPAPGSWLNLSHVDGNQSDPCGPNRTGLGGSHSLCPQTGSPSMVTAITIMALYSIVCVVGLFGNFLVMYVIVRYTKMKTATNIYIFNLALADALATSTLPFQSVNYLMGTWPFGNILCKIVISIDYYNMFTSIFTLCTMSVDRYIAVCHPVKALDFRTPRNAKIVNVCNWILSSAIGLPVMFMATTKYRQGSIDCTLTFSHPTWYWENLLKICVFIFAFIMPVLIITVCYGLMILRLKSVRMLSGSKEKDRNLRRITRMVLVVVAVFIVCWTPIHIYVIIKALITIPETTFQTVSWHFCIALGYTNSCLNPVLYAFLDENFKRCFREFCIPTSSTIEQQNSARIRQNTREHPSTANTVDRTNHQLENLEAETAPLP
UniProt P45983, 1-384 isoform 3: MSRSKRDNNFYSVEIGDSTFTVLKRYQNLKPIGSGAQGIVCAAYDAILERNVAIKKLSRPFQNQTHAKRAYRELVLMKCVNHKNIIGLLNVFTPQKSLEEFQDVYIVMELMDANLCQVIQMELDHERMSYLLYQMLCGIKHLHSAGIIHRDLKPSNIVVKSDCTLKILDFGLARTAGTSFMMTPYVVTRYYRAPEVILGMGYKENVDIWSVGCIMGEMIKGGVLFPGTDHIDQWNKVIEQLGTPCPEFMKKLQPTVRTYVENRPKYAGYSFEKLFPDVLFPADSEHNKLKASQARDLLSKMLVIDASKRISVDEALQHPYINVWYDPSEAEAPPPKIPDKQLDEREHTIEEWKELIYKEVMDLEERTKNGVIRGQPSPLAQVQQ
UniProt Q9P0L9, whole entry F514A: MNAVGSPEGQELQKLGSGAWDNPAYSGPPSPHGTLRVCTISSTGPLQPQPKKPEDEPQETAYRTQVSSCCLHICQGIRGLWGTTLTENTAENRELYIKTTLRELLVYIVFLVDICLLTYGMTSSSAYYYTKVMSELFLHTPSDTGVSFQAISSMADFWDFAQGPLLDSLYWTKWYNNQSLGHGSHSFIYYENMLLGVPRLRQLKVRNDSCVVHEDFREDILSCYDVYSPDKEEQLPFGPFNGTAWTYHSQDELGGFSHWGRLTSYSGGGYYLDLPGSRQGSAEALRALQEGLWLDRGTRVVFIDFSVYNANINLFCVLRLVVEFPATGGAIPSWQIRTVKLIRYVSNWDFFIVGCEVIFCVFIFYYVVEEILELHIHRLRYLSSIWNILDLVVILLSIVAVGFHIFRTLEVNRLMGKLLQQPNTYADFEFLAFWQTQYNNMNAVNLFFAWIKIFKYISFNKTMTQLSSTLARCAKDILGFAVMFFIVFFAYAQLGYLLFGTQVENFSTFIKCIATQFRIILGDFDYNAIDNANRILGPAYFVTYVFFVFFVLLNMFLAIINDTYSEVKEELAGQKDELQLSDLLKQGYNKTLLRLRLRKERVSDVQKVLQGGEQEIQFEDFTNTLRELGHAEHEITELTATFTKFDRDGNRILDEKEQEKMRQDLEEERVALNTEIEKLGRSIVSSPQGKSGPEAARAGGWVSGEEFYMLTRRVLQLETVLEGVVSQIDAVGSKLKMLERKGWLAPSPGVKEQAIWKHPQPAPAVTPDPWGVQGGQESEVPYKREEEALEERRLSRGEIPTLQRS
UniProt P06730, whole entry: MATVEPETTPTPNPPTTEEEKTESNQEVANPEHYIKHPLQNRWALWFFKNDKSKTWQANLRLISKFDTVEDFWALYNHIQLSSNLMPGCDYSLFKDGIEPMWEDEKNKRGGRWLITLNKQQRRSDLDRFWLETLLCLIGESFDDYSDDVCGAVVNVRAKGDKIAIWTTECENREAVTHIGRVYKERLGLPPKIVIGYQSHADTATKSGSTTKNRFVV

COc1ccc(CN[C@@H]2CO[C@H](C(c3ccccc3)c3ccccc3)C[C@H]2O)cc1 — inhibition (DRD1 (Homo sapiens, UniProt P21728); radioligand binding; 10 µM, added: [3H]SCH23390): 2.5%
CC(C)[C@H](NC(=O)[C@@H]1CCCN1C(=O)[C@H](C)NC(=O)[C@H](CO)NC(=O)[C@H](C)NC(=O)[C@H](CC(N)=O)NC(=O)[C@H](CCC(=O)O)NC(=O)[C@@H](NC(=O)[C@H](CC(=O)O)NC(=O)[C@H](CCCCN)NC(=O)[C@H](C)NC(=O)[C@H](CCC(N)=O)NC(=O)[C@H](Cc1ccccc1)NC(=O)[C@H](C)NC(=O)[C@H](Cc1c[nH]c2ccccc12)NC(=O)[C@H](C)NC(=O)[C@@H](NC(=O)CN)C(C)C)C(C)C)C(=O)O — binding stoichiometry (Peptide cyclase 1 (Gypsophila vaccaria, UniProt R4P353, S562A); isothermal titration calorimetry; concentration not given, pH 8.0, 25 °C): 1
CC(C)(C)O[C@@H]1C[C@@H](C(=O)N[C@H](Cc2ccccc2)C(=O)C(=O)NCc2ccc(Cl)cn2)N(C(=O)[C@@H](NC(=O)C2CCC(F)(F)CC2)C2CCCCC2)C1 — inhibition (TMPRSS2 (Homo sapiens, UniProt O15393, Q253D/R252D/R255K/S251D/S254D); enzyme activity, inhibitor; 0.6859 µM): 2.14% and -1.99% and 1.13%
C#CCOCCC(=O)N[C@H](Cc1ccccc1)C(=O)N[C@@H](Cc1ccccc1)C(=O)N[C@@H](CCCNC(N)=O)C(=O)CCl — selectivity ratio (Replicase polyprotein 1ab, main protease (rep, Severe acute respiratory syndrome coronavirus 2, UniProt P0DTD1); enzyme activity, inhibitor; reference: PLpro IC50 over target IC50): > 275 fold
CC[C@H](C)[C@@H]1NC(=O)[C@H](CCC(=O)O)NC(=O)[C@@H]2CCCN2C(=O)[C@H](Cc2c[nH]cn2)NC(=O)[C@H](CC(=O)O)NC(=O)[C@H](Cc2ccc(O)cc2)NC(=O)[C@H](CC(N)=O)NC(=O)[C@@H]2CSSC[C@@H]3NC(=O)CNC(=O)COCCOCCOCCOCCOCCOCCNC(=O)[C@H](CSSC[C@H](NC3=O)C(=O)N[C@@H](CO)C(=O)N[C@@H](CC(=O)O)C(=O)N3CCC[C@H]3C(=O)N[C@@H](CCCNC(=N)N)C(=O)N2)NC1=O — inhibition (Neuronal acetylcholine receptor; alpha9/alpha10 (Homo sapiens, UniProt Q9GZZ6+Q9UGM1); ACh-evoked current, two-electrode voltage clamp; Xenopus oocytes; 1 µM, added: ACh 6 µM): ~50%
CN1CC[C@]23c4c5ccc(O)c4O[C@H]2c2ncc(-c4ccc(Cl)cc4)cc2C[C@@]3(OCCCc2ccccc2)[C@H]1C5 — potency relative to DAMGO (OPRM1 (Homo sapiens, UniProt P35372); β-arrestin-2 recruitment, agonist, PathHunter; reference: DAMGO): ≤ 2 fold
NC1=NC2(CCCCC2)N(c2ccc(OCc3cn(CCCCOc4ccc(CCC(=O)O)c(O)c4)nn3)cc2)C(N)=N1 — selectivity ratio (folA (Mycobacterium tuberculosis, UniProt P9WNX1); enzyme activity; reference: human over M. tuberculosis): 188 fold
NCCNCCSc1ccccc1 — CL/F (Swiss albino mice, female, plasma; oral, 400 mg/kg): 320 mL/min/kg
COc1ccc(S(=O)(=O)Nc2cccc(C(=O)NC3CCN(c4ncnc5[nH]cnc45)CC3)c2)cc1 — viability (A549-ACE2; 2.469 µM): 103%
C[C@@H]1NC(=O)[C@H](CCCNC(=N)N)NC(=O)[C@H](CCCNC(=N)N)NC(=O)[C@@H]2CCCN2C(=O)[C@H](CO)NC(=O)[C@@H]2CSSC[C@H](NC(=O)CN)C(=O)N[C@@H](CSSC[C@@H](C(N)=O)NC(=O)[C@H](CO)NC(=O)[C@H](CCCNC(=N)N)NC1=O)C(=O)N[C@@H](CO)C(=O)N[C@@H](Cc1c[nH]cn1)C(=O)N1CCC[C@H]1C(=O)N[C@@H](C)C(=O)N2 — recovery of response (CHRNA7 (Homo sapiens, UniProt P36544); ion current, antagonist; Xenopus oocytes; 10 µM, 5 min, after washout, added: acetylcholine; reference: control): 30 ± 9%
O=C(N[C@@H]1CC[C@@]2(O)[C@H]3Cc4ccc(O)c5c4[C@@]2(CCN3CC2CC2)[C@H]1O5)c1ccncc1F — Emax (Oprm1 (Mus musculus, UniProt P42866); G protein activation; 1 µM, 24 h pretreatment, added: DAMGO): 156 ± 13.8 net fmol/mg
COC(=O)[C@@]1(C)C=C(C(=O)Nc2cc(C(=O)Nc3ccc(Nc4nccc(-c5cccnc5)n4)cc3)ccc2C)C(=O)CC1 — remaining activity (MAPK8 (Homo sapiens, UniProt P45983); kinase activity, inhibitor; 0.0007527 µM, unit not given, added: 10 mM GSH; reference: DMSO): 1.01
Cc1ccccc1Oc1ccc(Cn2cc(C3CC3)nn2)cc1O — reverse isomerization rate k6 (inhA; 20 °C, EI* to EI): 0.005 ± 0.002 min⁻¹
CN(C(=O)Cc1ccc(Cl)c(Cl)c1)C1CCCCC1N1CCCC1 (stereo not shown) — tail current (PKD2L1 (Homo sapiens, UniProt Q9P0L9, F514A); ion current, screen; 1 µM, mutant F514A; reference: vehicle): inhibited
COC(=O)[C@@H]1C=C(OC(=O)c2ccc(O)cc2)C(=O)[C@H]2[C@@]1(C)CC[C@H]1C(=O)O[C@H](c3ccoc3)C[C@]21C — bias factor (Mu-type opioid receptor, with beta-arrestin-2 (OPRM1, Homo sapiens, UniProt P35372); β-arrestin-2 vs cAMP, agonist; reference: DAMGO, higher = β-arrestin-2 bias): 2.13
NC[C@@H](NC[C@@H]1CCCN1C[C@@H](CO)NC[C@@H](NCCc1ccc(-c2ccccc2)cc1)c1ccccc1)c1ccccc1 — IC90 (Acinetobacter baumannii; bacterial growth; compound alone): 15.1 µM
Cc1ccc(-c2csc(NP(=O)(O)OCC3OC(n4c[n+](Cc5ccccc5)c5c(=O)[nH]c(NC(=O)c6ccccc6)nc54)C4OC(C)(C)OC34)n2)cc1 (stereo not shown) — decrease (Eukaryotic translation initiation factor 4E, phosphorylated (EIF4E, Homo sapiens, UniProt P06730); measured: EIF4E expression; MCF7; reference: untreated): 25.6%
N#Cc1ccccc1Oc1ccc(Cn2cc(C3CCCCC3)nn2)cc1O — reverse isomerization rate k6 (inhA; 20 °C, EI* to EI): 0.0084 ± 0.0017 min⁻¹
O=C(NC1CCN(c2ncnc3[nH]cnc23)CC1)c1cccc(NS(=O)(=O)c2ccc([N+](=O)[O-])cc2)c1 — viability (A549-ACE2; 7.407 µM): 99.6%
